Measurements gathered from unrelated publications.
Numbers after ± are the reported error.

Compound | cell line | test | setting | IC50
C[C@H]1C[C@H]2[C@@H]3CCC4=CC(=O)C=C[C@]4(C)[C@@]3(Cl)[C@@H](O)C[C@]2(C)[C@@]1(O)C(=O)CO | H3255 (EGFR L858R) | cell viability, Alamar Blue | 120 h | > 10 µM
CC[C@H](C)[C@H](N)C(=O)N[C@@H](CC(C)C)C(=O)N[C@@H](CCCNC(=N)N)C(=O)N[C@@H](Cc1c[nH]c2ccccc12)C(=O)N[C@@H](CO)C(=O)N[C@@H](CCCNC(=N)N)C(=O)N[C@@H](CCCCN)C(=O)N[C@@H](CC(C)C)C(=O)N1CCC[C@H]1C(=O)N[C@@H](CS)C(=O)N[C@H](C(=O)N[C@@H](CO)C(=O)O)C(C)C | SUP-T1 | ERK phosphorylation, inhibitor, phosphoflow cytometry | together with: CXCL12 100 ng/mL, 2 min | 1.54 ± 0.51 µM
CCN(CC)C(=S)[S][Sn]([c]1ccccc1)([c]1ccccc1)[c]1ccccc1 | WIL2-NS | cell growth or viability, MTT | – | 0.2 µM
COc1ccc2oc(C(=O)c3cc(OC)c(OC)c(OC)c3)c(N)c2c1 | K562 | cell growth or viability | – | 7.2 µM
COc1ccc(C[C@H]2NC(=O)/C=C/C[C@@H]([C@H](C)[C@@H](OC(=O)CN)[C@@H](Cl)c3ccccc3)OC(=O)[C@H](CC(C)C)OC(=O)C(C)(C)CNC2=O)cc1Cl | M21 | cytotoxicity, resazurin | 2 h plus 70 h incubation, without β-glucuronidase | 0.00425 ± 0.00043 µM
CC(C)[C@@H]1NC(=O)[C@H](C)OC(=O)[C@@H](C(C)C)NC(=O)[C@@H](C(C)C)OC(=O)[C@H](C(C)C)NC(=O)[C@H](C)OC(=O)[C@@H](C(C)C)NC(=O)[C@@H](C(C)C)OC(=O)[C@H](C(C)C)NC(=O)[C@H](C)OC(=O)[C@@H](C(C)C)NC(=O)[C@@H](C(C)C)OC1=O | U-87 MG | cell growth or viability, SRB | – | 0.03 µM
N.N.[Cl][Pt][Cl] | A2780cisR | cell growth or viability, MTT | 72 h, drug-resistant strain | 17 µM
COc1cc2c(Oc3ccc4[nH]c(C)cc4c3F)ccnc2cc1OCC1(N)CC1 | MHCC97H | cell growth or viability, MTT | 48 h | 1.75 µM
C=CCN1CC[C@]23c4c5ccc(O)c4O[C@@H]2/C(=N/N=C2\CC[C@@]4(O)C6Cc7ccc(O)c8c7[C@@]4(CCN6CC=C)[C@@H]2O8)CC[C@@]3(O)C1C5 | HEK293 expressing MOR | cAMP overshoot, inhibitor, HTRF cAMP | together with: morphine then naloxone | 0.46 µM
O=C(c1cc2c(F)cc(F)cc2[nH]1)N1CCN(C(=O)C23CC4CC(CC(C4)C2)C3)CC1 | KNS-42 | cell growth or viability, resazurin | 72 h | 5.04 µM
COc1ccc(C[C@H]2NC(=O)/C=C/C[C@@H]([C@H](C)[C@@H](OC(=O)CNC(=O)OCc3ccc(NC(=O)[C@H](C)NC(=O)[C@@H](NC(=O)CCc4cn(CCOCCOCCOCCOCC(=O)NCc5ccc(CN6C(=O)[C@H]7CC(=O)N[C@H](C(=O)O)CC(=O)NCC(=O)N[C@@H](CCCNC(=N)N)C(=O)NC[C@H]6C(=O)N7)cc5)nn4)C(C)C)cc3)[C@@H](Cl)c3ccccc3)OC(=O)[C@H](CC(C)C)OC(=O)C(C)(C)CNC2=O)cc1Cl | M21-L human melanoma (integrin αv-negative) | cell viability, MTT | 2 h treatment plus 70 h | 0.0326 ± 0.003 µM
O=C1C[C@@H](c2ccc(O)cc2)Oc2cc(O)ccc21 | SK-BR-3 breast cancer | cell growth | – | 155 ± 7.4 µM
CC(=O)OC[C@H]1O[C@@H]([S-])[C@H](OC(C)=O)[C@@H](OC(C)=O)[C@@H]1OC(C)=O.CCP(CC)CC.[Au+] | NICD-transfected HEK-293T | Notch-dependent transcription, inhibitor, luciferase reporter | 24 h | 2.2 µM
N.N.[Cl][Pt][Cl] | NCI-H838 | cell growth or viability, MTT | 4 h | 52.9 µM
O=C1[O][Pt]2([NH][C@@H]3CCCC[C@H]3[NH]2)[O]C1=O | VX2 | MTT | 24 h | 24.4 ± 2.07 µM
CC(C)c1ccc2c(c1)CC[C@H]1[C@](C)(CN)CCC[C@]21C | UACC-903 | cell growth or viability, MTS | 72 h | 1.07 µM
COc1ccc(C[C@H]2NC(=O)/C=C/C[C@@H]([C@H](C)[C@@H](OC(=O)CNC(=O)CCc3cn(CCOCCOCCOCCOCC(=O)NCc4ccc(CN5C(=O)[C@H]6CC(=O)N[C@@H](CCCNC(=N)N)C(=O)NCC(=O)N[C@@H](CC(=O)O)C(=O)NC[C@H]5C(=O)N6)cc4)nn3)[C@@H](Cl)c3ccccc3)OC(=O)[C@H](CC(C)C)OC(=O)C(C)(C)CNC2=O)cc1Cl | M21-L human melanoma (integrin αv-negative) | cell viability, MTT | 2 h treatment plus 70 h | 0.203 ± 0.0277 µM
N.N.[Cl][Pt][Cl] | MCF-12A | cell growth or viability, resazurin | 96 h | 11.2 µM
COc1ccc(NC(=O)Cn2cnc3ccccc3c2=O)c([N+](=O)[O-])c1 | MDA-MB-231 | cell growth or viability, crystal violet | 48 h | > 100 µM
N.N.[Cl][Pt][Cl] | NCI-H1975 | cell growth or viability, MTT | 72 h | 9.77 µM
N.N.[Cl][Pt][Cl] | Vero E6 | cytotoxicity, crystal violet staining | 96 h | 2.06 ± 0.02 µM
CO/C=C(/C(=O)OC)c1ccccc1Oc1cc(Oc2ccccc2C#N)ncn1 | HEK293T ERR reporter line | cell viability, qHTS | – | 30.6 µM
N#Cc1ccc(N2CCCC(CN3CCC(C4(C5CCCC5)NCCc5ccccc54)CC3)C2)cc1 (centres unmarked) | MV4-11 | cell growth or viability, CCK-8 | 96 h | 3.96 µM
C#CCc1c(Cl)nc(N)nc1Cl | mouse peritoneal cells | nitric oxide production, Griess | 24 h, together with: LPS plus IFN-gamma | 9 µM
O=P12CN3CN(CN(C3)C1)C2 | DU-145 | cell growth or viability, MTT | 24 h | > 500 µM
COc1cc2cc(c1Cl)N(C)C(=O)C[C@H](OC(=O)[C@H](C)N(C)C(=O)CCS)[C@]1(C)O[C@H]1[C@H](C)[C@@H]1C[C@@](O)(NC(=O)O1)[C@H](OC)/C=C/C=C(\C)C2 | MDA-MB-468 | cell growth or viability, ATP luminescence | – | 0.0048 µM
Nc1nc2c(ncn2COCCO)c(=O)[nH]1 | MT4 | cell growth or viability | – | > 150 µM
Cc1ccc2[nH]c(C(=O)NC(C)C34CC5CC(CC(C5)C3)C4)cc2c1 (centres unmarked) | KNS-42 | cell growth or viability, resazurin | 72 h | > 10 µM
N.N.[Cl][Pt][Cl] | BEAS-2B | – | – | 5.7 ± 0.3 µM
